Experimental data gathered from unrelated publications.
Each numbered part is a random draw from the data of one study; scales do not carry over between parts. Substitutions count along the parent as printed.

Sample 1
Target: vanadate, free oxyanion
Method: microfluidic competitive inhibition
Sample: in vitro, cell-free expressed
Tested at: not given
Notes: derived from inhibition constants, unchanged parent 676 nM
Direction: lower = stronger binding
Measurement: oxyanion analog dissociation constant
Parent: PafA, mature enzyme, eGFP fusion (Elizabethkingia meningoseptica, UniProt Q9KJX5); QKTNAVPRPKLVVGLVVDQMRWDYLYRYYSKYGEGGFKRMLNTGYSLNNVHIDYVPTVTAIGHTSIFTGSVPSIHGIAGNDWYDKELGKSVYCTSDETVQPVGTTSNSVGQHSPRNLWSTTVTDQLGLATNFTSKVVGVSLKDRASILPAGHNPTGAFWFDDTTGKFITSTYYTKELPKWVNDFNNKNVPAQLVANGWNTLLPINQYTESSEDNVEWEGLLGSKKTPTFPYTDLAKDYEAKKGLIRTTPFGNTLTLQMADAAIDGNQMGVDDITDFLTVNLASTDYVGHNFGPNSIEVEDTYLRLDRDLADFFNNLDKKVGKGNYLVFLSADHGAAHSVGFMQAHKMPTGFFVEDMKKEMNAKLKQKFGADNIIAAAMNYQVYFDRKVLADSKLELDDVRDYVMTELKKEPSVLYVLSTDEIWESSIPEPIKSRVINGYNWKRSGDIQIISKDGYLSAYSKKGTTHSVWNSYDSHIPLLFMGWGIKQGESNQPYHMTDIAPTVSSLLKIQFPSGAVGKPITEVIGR
D275G: 940 nM
K187G: 642 nM
L417V: 872 nM
L234V: 633 nM

Sample 2
Target: Histone acetyltransferase KAT6A, both winged helices, GST fusion (KAT6A, Homo sapiens, UniProt Q92794, residues 1-181)
Method: protein binding microarray
Form: double-stranded DNA, one strand shown
Sample: in vitro
Tested at: not given
Notes: 8-mer, flanks averaged, mean of 2 arrays, mostly near background
Relative to: not given
Direction: higher = stronger binding
Measurement: E-score
Target sequence (chain): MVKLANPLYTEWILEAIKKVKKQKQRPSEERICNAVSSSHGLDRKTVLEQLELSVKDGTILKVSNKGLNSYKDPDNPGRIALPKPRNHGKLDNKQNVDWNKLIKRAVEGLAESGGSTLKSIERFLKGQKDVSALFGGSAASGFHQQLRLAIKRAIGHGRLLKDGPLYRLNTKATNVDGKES
GCAGAAGA: -0.093
AGTGGCGA: 0.0378
CCTATGAC: -0.103
GAAGTAGA: -0.195
CTGTTCAC: -0.0202
GTCTCCTA: -0.161
TATATTGA: -0.0458
CTATAAAC: -0.0357

Sample 3
Target: CCNA1, cyclin fold, Cln2 fusion (human)
Method: yeast growth competition, sequencing
Sample: yeast
Notes: strong parent motif
Relative to: not given
Direction: higher = stronger binding
Measurement: normalised enrichment score
Parent: viral docking peptide; YKVKRRLVFGADD; partner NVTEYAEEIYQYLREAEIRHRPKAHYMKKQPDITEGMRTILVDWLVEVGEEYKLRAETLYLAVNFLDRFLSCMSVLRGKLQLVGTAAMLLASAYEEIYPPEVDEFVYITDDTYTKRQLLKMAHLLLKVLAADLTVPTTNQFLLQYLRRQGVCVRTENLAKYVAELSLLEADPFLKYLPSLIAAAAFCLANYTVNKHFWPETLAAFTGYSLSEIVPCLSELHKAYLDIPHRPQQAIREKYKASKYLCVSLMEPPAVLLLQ
YKVKRRLMFGADD [V8M]: 1.18
YKIKRRLVFGADD [V3I]: 1.18
YKVKRRLVFGAPD [D12P]: 1.34
YWVKRRLVFGADD [K2W]: 0.625
YKVKRRLVFCADD [G10C]: 1.23
YKVKRMLVFGADD [R6M]: 0.963
YKVKRRLVFGEDD [A11E]: 1.43
YPVKRRLVFGADD [K2P]: 1.47
YKVKQRLVFGADD [R5Q]: 0.443
YKVKRRLNFGADD [V8N]: 1.44
YKVVRRLVFGADD [K4V]: -0.308
YKVKRRLCFGADD [V8C]: 1.19
YKVKYRLVFGADD [R5Y]: 0.0129
YKVKRVLVFGADD [R6V]: 0.875
YKVKRRLVCGADD [F9C]: 0.487
YKVKRRLVFNADD [G10N]: 1.63
YKVKRRRVFGADD [L7R]: 0.415
YKVKRRLIFGADD [V8I]: 0.799
YKVKRRFVFGADD [L7F]: 0.414
YKVKRRLLFGADD [V8L]: 0.959
YKVPRRLVFGADD [K4P]: 0.375
YKSKRRLVFGADD [V3S]: 0.89
YKVKRRHVFGADD [L7H]: 0.0401
YKVKRRLVFGAED [D12E]: 1.08
YKVWRRLVFGADD [K4W]: -0.157

Sample 4
Target: Prothrombin, mature alpha-thrombin (F2, Homo sapiens, UniProt P00734)
Method: aptamer microarray, sandwich
Form: DNA with 2'F-ANA
Sample: in vitro
Tested at: 200 nM
Notes: whole 15-mer aptamer, many near background
Added: Cy3 exosite-II aptamer, 400 nM
Direction: higher = stronger binding
Measurement: mean fluorescence intensity
Sequence: GGTTGGTGTGGTTGG
2'F-ANA at 2 6 7 9 10 11 13: 113 a.u.
2'F-ANA at 2 3 4 8 12: 1070 a.u.
2'F-ANA at 1 5 7 9 10 11 12 14 15: 192 a.u.
2'F-ANA at 1 5 8 9 10 11 12 14: 48.6 a.u.
2'F-ANA at 2 5 6 9 10 11 15: 51.6 a.u.
2'F-ANA at 3 5 9 12: 292 a.u.
2'F-ANA at 1 3 10 11 12 13: 121 a.u.
2'F-ANA at 1 2 3 4 5 8 9 10 11 12 13 14: 45.7 a.u.

Sample 5
Target: UDP-N-acetylglucosamine--peptide N-acetylglucosaminyltransferase 110 kDa subunit (OGT, Homo sapiens, UniProt O15294)
UniProt O15294, sequence (whole entry, looked up): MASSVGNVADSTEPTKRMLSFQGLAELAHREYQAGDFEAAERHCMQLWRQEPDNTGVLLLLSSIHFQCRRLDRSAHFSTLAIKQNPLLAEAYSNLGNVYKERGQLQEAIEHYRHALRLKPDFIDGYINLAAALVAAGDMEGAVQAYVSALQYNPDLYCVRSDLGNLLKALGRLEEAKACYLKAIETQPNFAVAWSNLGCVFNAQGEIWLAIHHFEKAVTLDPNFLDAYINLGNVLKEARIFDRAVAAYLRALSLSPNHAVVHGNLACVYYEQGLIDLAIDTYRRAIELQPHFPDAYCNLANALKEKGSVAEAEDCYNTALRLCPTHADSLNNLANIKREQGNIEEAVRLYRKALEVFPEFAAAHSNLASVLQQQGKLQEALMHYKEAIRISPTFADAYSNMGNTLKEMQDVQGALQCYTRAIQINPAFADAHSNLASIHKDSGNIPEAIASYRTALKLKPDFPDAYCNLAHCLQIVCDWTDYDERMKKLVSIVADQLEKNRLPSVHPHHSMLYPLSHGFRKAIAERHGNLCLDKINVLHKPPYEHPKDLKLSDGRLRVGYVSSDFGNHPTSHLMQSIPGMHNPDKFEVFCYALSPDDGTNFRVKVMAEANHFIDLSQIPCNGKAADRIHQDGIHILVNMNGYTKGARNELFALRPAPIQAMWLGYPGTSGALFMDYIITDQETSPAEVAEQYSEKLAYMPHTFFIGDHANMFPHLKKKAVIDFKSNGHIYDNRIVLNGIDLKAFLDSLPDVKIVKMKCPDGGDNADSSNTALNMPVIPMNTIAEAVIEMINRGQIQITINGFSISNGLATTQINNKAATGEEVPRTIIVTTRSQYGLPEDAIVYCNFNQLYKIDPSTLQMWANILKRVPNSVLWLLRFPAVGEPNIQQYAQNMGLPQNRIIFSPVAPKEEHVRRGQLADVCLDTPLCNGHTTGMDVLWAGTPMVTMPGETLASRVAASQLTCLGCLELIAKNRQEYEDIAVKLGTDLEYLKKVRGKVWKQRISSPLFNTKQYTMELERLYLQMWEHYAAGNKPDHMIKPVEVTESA
Read-out: binding
Method: phage display NGS
Form: peptide
Tested at: concentration not given
Relative to: input library
Measurement: enrichment fold change
QLHMLRQQHAHSGAT: 5.93
QPQIHLHHHPSYTGR: 3.67
YTDNEEIIFHHHQVA: 3.7
HIVHYNKYFASGTHT: 2.38

Sample 6
Target: RNA binding protein fox-1 homolog 2, RRM domain, GST-SBP tag (RBFOX2, Homo sapiens, UniProt O43251-10, residues 100-194)
Method: RNA Bind-n-Seq
Form: RNA
Sample: in vitro
Tested at: 365 nM
Notes: natural RNA segment, single round, ends assumed
Relative to: no-protein control
Direction: higher = stronger binding
Measurement: RBNS enrichment (R)
Shared flanks, not repeated: GGGAGUUCUACAGUCCGACGAUC … UGGAAUUCUCGGGUGCCAA
Residues (chain): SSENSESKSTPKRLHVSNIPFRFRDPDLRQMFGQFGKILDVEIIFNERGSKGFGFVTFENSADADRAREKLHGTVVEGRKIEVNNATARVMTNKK
AAGCUAUAUUUAUACCAGUGUCACCCUUUUCUUGUAGAAUAUACUAAUAAUCUGUGCCAACUCUACCUUCUCACUUUUACCUCUGACGUCAUUCUUUUUUUCUGAAAGAG: 0.367
CUUCCUUUUUCCUGGGAUUCUUUAUCCUAAACCCUGCAUAUCUGAGAACCGCCUUUCUCAUAUUUCCUGAAUGGGGUUUGACUCUAUUUGGGGAAAACAUUGCUUUUGGU: 0.293
CCCACCGCGUCUUGCCUUUGUGCUGACCCCGCGGGGCUGCGGCCGGCAGCCACUCUGCGUCUCUCACCUGCCAGGCCUGCGUGGCCUUAGGGUUGUUCCUGUUCUUUUAG: 0.314
AUUAUCCAGUCGGUCCCAUCUAUCCACCUGGCUCCACAGUGCUGGUGGAAGGAGGGUAUGAUGCAGGUGCCAGAUUUGGAGCUGGGGCUACUGCUGGCAACAUUCCUGCU: 0.251
UCCAUAUAGACACCAAGGAGGCGGAGGCGCUCCUCCCUGCCUCAGUGGCUCUGGGUACCUGCAAGCAGAACUUCCAAAGAGAGUUAAAAGCAGCAGCCCCGGCAACUCUG: 0.371
CAUAGACCUGAGAGGAGCAGAGAAGGAACACUACAUUCUCUAACGUUCUGUUAACCUUUGUACCAAAUAGCAAUAAAAACGAGUGGGAGCCGUUGGGCGGUGCGCCAGAG: 0.359
GAAGCAAAGAAAAUACAGGAAAAAAUAAAUCACAAUCUAUUUUUCCAAAGGGGAAACACAUUUGAAAGCUUUUAAAAUGUAGACUUCAUUAUCCAUACCCAUGGAAACUA: 0.661
UUGUAUUUGACUAUUUAAUCCUUUCUACUUGUCGCUAAAUAUAAUUGUUUUAGUCUUAUGGCAUGAUGAUAGCAUAUGUGUUCAGGUUUAUAGCUGUUGUGUUUAAAAAU: 0.69
